Assay results from different studies.
Each numbered part is a random draw from the data of one study; scales do not carry over between parts. Substitutions count along the parent as printed.
Sequence of UniProt P08069 (whole entry, looked up): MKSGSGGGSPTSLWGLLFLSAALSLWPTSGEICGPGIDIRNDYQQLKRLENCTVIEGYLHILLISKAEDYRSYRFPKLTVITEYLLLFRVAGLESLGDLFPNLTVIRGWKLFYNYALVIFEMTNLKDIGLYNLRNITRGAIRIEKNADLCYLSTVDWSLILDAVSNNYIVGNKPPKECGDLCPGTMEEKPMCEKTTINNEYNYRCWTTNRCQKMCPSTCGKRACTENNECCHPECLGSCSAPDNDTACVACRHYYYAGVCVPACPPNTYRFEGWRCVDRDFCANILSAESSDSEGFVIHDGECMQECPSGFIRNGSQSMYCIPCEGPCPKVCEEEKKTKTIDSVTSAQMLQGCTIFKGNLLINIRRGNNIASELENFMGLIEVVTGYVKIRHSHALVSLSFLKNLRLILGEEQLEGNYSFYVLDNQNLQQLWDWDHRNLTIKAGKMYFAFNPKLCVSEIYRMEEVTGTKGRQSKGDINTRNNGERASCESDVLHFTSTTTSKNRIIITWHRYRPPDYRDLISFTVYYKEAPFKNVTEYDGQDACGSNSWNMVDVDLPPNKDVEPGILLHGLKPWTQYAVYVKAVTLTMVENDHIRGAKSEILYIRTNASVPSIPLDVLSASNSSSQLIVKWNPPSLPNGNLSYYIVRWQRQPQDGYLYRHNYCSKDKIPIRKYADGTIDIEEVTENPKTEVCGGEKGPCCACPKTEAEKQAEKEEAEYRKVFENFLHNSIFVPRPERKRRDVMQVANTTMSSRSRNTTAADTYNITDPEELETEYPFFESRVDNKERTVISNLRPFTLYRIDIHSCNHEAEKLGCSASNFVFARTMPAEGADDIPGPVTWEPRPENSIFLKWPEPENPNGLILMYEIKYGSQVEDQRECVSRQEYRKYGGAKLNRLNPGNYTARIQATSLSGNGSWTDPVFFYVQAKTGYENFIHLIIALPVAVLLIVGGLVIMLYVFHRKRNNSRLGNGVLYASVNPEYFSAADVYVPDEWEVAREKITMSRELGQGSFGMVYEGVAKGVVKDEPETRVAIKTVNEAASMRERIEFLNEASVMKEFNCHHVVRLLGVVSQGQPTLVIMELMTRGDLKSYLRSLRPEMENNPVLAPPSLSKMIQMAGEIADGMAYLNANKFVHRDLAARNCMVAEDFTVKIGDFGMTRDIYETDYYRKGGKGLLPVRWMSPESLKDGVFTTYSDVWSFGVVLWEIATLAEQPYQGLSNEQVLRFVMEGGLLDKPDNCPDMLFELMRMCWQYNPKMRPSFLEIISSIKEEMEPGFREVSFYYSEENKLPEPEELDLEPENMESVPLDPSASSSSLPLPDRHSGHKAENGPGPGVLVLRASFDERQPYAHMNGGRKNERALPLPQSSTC
Sequence of UniProt Q99755 (whole entry, looked up): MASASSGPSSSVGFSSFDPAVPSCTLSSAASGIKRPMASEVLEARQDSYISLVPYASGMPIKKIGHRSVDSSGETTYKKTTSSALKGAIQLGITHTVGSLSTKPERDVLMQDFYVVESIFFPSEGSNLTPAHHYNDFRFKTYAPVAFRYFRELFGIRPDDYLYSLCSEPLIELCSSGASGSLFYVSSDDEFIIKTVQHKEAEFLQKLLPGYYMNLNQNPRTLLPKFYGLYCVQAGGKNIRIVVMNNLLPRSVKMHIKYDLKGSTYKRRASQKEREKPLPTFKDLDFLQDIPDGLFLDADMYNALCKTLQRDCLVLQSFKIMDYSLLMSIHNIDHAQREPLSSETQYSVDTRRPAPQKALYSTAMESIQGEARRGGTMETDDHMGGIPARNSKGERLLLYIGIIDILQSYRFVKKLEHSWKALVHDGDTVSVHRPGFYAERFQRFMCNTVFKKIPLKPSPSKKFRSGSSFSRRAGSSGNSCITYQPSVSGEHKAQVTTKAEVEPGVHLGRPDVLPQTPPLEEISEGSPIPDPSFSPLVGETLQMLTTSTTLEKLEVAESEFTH
Sequence of UniProt Q16659 (whole entry, looked up): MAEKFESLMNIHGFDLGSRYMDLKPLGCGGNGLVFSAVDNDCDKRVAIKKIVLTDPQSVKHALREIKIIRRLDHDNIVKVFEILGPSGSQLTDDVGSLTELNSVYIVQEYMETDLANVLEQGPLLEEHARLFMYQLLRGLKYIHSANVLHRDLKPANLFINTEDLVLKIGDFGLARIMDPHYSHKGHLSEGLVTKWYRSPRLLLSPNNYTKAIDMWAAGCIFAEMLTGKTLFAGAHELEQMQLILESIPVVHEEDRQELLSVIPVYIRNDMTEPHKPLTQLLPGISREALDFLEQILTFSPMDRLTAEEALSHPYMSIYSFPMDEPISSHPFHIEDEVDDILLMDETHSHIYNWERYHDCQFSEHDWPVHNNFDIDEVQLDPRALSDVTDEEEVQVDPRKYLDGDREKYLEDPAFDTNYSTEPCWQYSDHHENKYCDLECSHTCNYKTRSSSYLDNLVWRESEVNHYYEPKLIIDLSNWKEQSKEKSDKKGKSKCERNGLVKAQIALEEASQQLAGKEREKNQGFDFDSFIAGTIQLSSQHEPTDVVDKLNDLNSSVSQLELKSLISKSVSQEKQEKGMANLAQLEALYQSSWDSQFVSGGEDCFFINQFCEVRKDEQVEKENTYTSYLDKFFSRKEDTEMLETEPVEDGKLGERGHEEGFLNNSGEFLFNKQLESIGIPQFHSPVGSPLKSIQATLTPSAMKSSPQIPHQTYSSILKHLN
Sequence of UniProt O14757 (whole entry, looked up): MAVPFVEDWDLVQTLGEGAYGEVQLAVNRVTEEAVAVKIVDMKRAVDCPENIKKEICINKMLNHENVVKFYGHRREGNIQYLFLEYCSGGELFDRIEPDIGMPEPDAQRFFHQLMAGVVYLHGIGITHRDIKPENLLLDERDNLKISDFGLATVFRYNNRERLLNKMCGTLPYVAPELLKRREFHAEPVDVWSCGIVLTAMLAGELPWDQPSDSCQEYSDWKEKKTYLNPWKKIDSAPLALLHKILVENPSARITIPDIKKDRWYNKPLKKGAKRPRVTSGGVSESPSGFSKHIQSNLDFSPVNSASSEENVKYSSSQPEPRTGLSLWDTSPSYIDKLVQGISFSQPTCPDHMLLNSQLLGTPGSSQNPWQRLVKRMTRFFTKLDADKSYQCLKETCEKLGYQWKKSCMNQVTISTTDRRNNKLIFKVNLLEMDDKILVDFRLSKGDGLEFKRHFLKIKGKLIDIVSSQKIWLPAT
Sequence of UniProt Q9UPE1 (whole entry, looked up): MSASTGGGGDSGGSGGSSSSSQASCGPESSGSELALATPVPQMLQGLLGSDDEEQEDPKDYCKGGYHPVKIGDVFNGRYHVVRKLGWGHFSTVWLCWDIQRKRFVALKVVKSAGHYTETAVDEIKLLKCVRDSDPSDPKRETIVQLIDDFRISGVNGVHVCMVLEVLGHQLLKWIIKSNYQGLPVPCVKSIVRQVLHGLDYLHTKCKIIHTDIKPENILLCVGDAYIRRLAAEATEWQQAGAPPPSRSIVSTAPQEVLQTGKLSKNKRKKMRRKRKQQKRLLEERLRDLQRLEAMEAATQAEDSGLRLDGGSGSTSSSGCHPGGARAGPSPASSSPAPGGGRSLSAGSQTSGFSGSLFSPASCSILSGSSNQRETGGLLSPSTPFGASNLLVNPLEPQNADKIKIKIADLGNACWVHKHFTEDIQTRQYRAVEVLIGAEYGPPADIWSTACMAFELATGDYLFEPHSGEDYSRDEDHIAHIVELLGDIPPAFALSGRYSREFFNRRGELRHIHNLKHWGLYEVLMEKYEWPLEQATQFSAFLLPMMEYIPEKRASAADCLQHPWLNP
Sequence of UniProt P31152 (whole entry, looked up): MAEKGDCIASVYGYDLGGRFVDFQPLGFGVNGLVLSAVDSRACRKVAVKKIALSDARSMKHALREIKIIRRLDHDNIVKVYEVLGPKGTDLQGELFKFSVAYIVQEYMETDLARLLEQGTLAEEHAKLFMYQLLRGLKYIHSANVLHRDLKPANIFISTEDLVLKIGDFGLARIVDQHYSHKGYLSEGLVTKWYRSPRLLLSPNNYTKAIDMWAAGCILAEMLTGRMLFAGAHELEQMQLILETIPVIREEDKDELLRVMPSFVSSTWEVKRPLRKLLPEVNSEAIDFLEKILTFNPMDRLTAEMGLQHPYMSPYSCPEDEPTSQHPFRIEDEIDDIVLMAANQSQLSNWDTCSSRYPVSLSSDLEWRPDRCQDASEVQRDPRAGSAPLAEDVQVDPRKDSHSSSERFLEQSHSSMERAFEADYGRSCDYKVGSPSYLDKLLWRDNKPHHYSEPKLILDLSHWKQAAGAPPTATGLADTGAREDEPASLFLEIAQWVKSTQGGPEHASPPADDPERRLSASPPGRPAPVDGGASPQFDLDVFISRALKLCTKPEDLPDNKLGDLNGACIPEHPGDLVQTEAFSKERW
Sequence of UniProt Q9Y2H1 (whole entry, looked up): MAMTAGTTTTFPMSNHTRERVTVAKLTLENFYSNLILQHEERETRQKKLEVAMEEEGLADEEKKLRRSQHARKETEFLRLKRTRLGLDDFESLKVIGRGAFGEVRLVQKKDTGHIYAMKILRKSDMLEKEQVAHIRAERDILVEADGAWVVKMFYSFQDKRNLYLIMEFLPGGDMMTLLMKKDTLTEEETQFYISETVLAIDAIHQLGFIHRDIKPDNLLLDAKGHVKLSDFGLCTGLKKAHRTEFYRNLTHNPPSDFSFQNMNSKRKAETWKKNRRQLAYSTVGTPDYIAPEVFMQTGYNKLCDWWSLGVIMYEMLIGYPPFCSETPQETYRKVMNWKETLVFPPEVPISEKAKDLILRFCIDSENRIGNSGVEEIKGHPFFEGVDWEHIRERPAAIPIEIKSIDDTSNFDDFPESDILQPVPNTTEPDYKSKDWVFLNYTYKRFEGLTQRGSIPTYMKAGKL

Study 1 — method: competition with immobilised ligand; concentration: 1 µM; quantity: remaining binding
Structure (SMILES): NS(=O)(=O)c1cc(NC(=O)C2(c3ccccc3Cl)CC2)ccc1Oc1cccc(Cl)c1
SRPK3 (Homo sapiens, UniProt Q9UPE1); cell-free assay: 80%
BMPR1A (Homo sapiens, UniProt P36894); binding: 90%
MAPK6 (Homo sapiens, UniProt Q16659); cell-free assay: 100%
PIP5K1A (Homo sapiens, UniProt Q99755); cell-free assay: 100%
PIK3CA (Homo sapiens, UniProt P42336, H1047L); cell-free assay: 98%
STK38L (Homo sapiens, UniProt Q9Y2H1); binding: 81%
PIK3CB (Homo sapiens, UniProt P42338); cell-free assay: 100%
PRKACA (Homo sapiens, UniProt P17612); cell-free assay: 94%
MAPK4 (Homo sapiens, UniProt P31152); cell-free assay: 87%
IGF1R (Homo sapiens, UniProt P08069); cell-free assay: 80%
Tyrosine-protein kinase ABL1, non-phosphorylated (ABL1, Homo sapiens, UniProt P00519, T315I); cell-free assay: 82%
CDK7 (Homo sapiens, UniProt P50613); cell-free assay: 82%
CHEK1 (Homo sapiens, UniProt O14757); cell-free assay: 80%

Study 2 — target: CREB3L2, bZIP domain (human); method: DHFR protein complementation; medium: yeast; reference: wild-type JUN-FOS pair; reading: higher = stronger binding; quantity: binding fitness
Setting: single substitutions, most at no-binding floor
Parent: JUN, bZIP domain (human); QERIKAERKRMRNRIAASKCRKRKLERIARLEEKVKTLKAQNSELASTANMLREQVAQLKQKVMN; partner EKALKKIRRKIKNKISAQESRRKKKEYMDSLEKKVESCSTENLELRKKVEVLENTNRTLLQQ
L45W: -1.43 natural log
L31M: -1.22 natural log
T48F: -1.57 natural log
V35W: -1.47 natural log
L45T: -1.58 natural log
S47H: -1.4 natural log
A49S: -1.52 natural log
R30N: -1.11 natural log

Study 3 — read-out: enzyme activity; mode: inhibitor; concentration: 0.5 µM; reference: control; quantity: remaining activity
Target: Protein kinase C iota type (PRKCI, Homo sapiens, UniProt P41743)
Construct (P41743 1-596): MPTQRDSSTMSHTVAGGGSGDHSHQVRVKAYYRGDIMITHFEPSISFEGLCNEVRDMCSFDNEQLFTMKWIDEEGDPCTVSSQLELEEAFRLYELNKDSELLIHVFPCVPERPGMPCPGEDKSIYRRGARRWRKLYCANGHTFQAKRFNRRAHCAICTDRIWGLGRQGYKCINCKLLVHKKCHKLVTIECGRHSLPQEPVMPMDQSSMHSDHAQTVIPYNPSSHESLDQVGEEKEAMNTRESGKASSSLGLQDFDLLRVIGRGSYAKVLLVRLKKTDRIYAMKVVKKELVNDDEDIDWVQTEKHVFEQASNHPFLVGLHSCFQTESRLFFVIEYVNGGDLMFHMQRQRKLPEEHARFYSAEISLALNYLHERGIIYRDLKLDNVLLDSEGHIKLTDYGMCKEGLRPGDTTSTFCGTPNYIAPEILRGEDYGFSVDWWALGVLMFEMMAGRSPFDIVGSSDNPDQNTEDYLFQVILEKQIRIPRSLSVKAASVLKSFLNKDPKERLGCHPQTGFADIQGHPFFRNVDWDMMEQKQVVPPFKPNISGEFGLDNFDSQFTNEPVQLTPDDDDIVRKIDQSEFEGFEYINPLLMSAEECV
O=S(=O)(c1cccc2cnccc12)N1CCCNCC1: 87.2%
CN(C)c1ccc(C=C2C(=O)Nc3ccccc32)cc1: 101%
Cc1cccc(-c2[nH]c(C(C)(C)C)nc2-c2ccc3c(c2)OCO3)n1: 92.8%
O=C1NC(=O)C(c2cn(CCCO)c3ncccc23)=C1c1cnccn1: 87%
Nc1ccc2ncnc(NCCc3ccc(Oc4ccccc4)cc3)c2c1: 103%
Nc1[nH]nc2nc3ccccc3nc12: 103%
Oc1ccc(-c2nc(-c3ccncc3)c(-c3ccc(F)cc3)[nH]2)cc1: 93.4%
COc1cc2nccc(Oc3ccc(NC(=S)NC(=O)c4ccccc4C)cc3)c2cc1OC: 99.9%
C#Cc1cccc(Nc2ncnc3cc(OCCOC)c(OCCOC)cc23)c1: 99%
N#CC(C#N)=C(N)/C(C#N)=C/c1ccc(O)cc1: 97.4%
COc1ccc(C(=O)Nc2sc3c(c2C(N)=O)CCCC3)cc1OC: 91.8%
COc1ccc(OC)c2c(=S)c3ccccc3[nH]c12: 99.3%
CNC(=O)c1cc(Oc2ccc(NC(=O)Nc3ccc(Cl)c(C(F)(F)F)c3)cc2)ccn1: 89.9%

Study 4 — method: protein-binding microarray; molecule type: double-stranded DNA, one strand shown; medium: in vitro; concentration: not given; reading: higher = stronger binding; quantity: E-score
Target: Myc proto-oncogene protein, bHLH-zipper, MAX partner unstated (MYC, Homo sapiens, UniProt P01106, residues 368-449)
Sequence of UniProt P01106 (368-449, looked up): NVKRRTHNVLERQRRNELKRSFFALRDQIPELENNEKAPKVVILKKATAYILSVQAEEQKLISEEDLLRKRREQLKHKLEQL
Setting: k-mer, scored over probes, only values ≥0.25
GCGTGACC: 0.378
CGTGACAA: 0.324
CACGCTAA: 0.313
GGTAGCAC: 0.306
CTGCCCAC: 0.272
ACGTGACA: 0.426
ACCTCGCA: 0.27
GCATGACA: 0.333

Repeated from above (study 3):
O=S(=O)(c1cccc2cnccc12)N1CCCNCC1: 87.2%
CN(C)c1ccc(C=C2C(=O)Nc3ccccc32)cc1: 101%
Cc1cccc(-c2[nH]c(C(C)(C)C)nc2-c2ccc3c(c2)OCO3)n1: 92.8%
